Published values pooled from the literature.
Every numbered part comes from another study and shows a few of its results, in no order.

Block 1
Target: Interferon regulatory factor 7, full length, phosphomimetic (IRF7, Homo sapiens, UniProt Q92985, residues 1-503, S101K/S471D/S472D/S475D/S476D/S477D/S483D/S484D/S487D)
UniProt Q92985, sequence (whole entry, unmodified, looked up): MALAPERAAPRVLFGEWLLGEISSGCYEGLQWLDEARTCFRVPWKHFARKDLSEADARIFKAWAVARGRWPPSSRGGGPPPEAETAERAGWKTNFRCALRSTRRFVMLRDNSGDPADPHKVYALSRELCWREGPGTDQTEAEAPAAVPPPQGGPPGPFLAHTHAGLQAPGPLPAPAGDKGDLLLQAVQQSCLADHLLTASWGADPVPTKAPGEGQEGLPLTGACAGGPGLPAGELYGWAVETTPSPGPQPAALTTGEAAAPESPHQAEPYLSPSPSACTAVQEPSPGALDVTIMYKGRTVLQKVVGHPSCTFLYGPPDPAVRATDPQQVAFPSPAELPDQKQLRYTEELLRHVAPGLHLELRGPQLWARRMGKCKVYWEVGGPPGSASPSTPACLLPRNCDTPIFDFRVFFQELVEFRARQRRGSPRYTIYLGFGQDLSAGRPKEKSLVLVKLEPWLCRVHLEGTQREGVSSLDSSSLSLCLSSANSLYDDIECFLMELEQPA
Technique: protein-binding microarray
Form: double-stranded DNA, one strand shown
Sample: in vitro
Tested at: 250 nM
Setting: 60-bp whole probe
With: salmon DNA 0.4 mg/ml
Reference: random background probes
Reading: higher = stronger binding
Strand	log fluorescence [z-score]
GCCTAGCACGACGATATCGGGACTGGCGACGTGCTAGTCTTGATTCGCTTGACGCTGCTG	-0.354
GCCTAGCACTTGGATTTCGGGTTTCGATTAGTGCTAGTCTTGATTCGCTTGACGCTGCTG	7.1
GCCTAGCACGACGATTGCAGTTCCGAGACGTGCTAGGTCTTGATTCGCTTGACGCTGCTG	-0.248

Block 2
Target: Sal-like protein 4, full length isoform A (SALL4, Homo sapiens, UniProt Q9UJQ4, residues 1-1053)
UniProt Q9UJQ4, sequence (whole entry, looked up): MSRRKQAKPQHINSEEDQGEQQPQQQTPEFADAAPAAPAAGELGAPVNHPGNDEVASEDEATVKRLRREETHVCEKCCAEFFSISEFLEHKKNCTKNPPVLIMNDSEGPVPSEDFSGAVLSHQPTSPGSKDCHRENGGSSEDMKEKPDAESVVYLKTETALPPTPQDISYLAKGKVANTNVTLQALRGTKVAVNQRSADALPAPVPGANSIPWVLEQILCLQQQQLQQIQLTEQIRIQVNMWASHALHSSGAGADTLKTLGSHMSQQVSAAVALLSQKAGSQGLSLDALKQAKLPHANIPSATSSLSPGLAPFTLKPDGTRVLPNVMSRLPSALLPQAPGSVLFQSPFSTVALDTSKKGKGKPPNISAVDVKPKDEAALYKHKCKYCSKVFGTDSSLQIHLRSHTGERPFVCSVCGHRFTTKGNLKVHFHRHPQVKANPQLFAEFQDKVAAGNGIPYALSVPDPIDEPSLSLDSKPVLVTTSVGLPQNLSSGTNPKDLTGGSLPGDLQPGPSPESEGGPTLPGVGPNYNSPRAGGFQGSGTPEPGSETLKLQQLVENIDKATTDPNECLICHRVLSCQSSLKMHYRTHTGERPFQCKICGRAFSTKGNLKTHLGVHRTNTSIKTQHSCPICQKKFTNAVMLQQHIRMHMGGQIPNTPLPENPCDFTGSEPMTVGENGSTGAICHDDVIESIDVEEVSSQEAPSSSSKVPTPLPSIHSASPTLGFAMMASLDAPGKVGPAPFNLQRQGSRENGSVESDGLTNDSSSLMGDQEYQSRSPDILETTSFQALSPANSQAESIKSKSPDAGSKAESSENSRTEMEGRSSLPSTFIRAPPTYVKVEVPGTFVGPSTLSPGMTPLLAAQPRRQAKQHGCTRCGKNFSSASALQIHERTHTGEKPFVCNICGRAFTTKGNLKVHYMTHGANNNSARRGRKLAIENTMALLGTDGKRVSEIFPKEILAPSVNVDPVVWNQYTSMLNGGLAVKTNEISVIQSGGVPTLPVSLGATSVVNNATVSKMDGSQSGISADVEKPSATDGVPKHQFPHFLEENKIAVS
Technique: universal PBM
Form: double-stranded DNA, one strand shown
Sample: in vitro
Tested at: 600 nM
Setting: 8-mer, flanks averaged, mean of replicates
Reading: higher = stronger binding
Strand	E-score
AAAATTTG	0.346
ACAAAGGA	0.135
TGTCGACA	0.0276
GCGTTAAA	-0.05
CGTGGCCA	-0.238
ACTTCGAG	0.0305
CCTTTTCC	-0.0743
ATCCCCTA	0.0358
AATGAATT	0.333

Block 3
Target: Phosphate system positive regulatory protein PHO4, full length, GST-tagged (PHO4, Saccharomyces cerevisiae, UniProt P07270, residues 1-312)
Technique: competition protein-binding microarray
Form: double-stranded DNA, one strand shown
Sample: in vitro
Tested at: 2 µM
Setting: whole 60-bp probe, lowest competitor level
With: Cbf1 competitor, 0.05 µM
Reading: higher = stronger binding
Construct (chain): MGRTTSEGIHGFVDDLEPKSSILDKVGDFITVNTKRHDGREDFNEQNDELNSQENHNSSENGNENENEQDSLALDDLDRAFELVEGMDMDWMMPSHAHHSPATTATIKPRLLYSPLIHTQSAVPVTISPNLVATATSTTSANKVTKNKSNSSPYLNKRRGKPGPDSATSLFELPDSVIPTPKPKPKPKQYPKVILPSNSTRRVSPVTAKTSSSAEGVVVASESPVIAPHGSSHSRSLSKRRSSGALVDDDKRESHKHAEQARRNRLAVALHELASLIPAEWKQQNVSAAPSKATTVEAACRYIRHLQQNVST
Strand	fluorescence intensity
AAAGGCCATCCATACTACGTGGGTACTCAATACCATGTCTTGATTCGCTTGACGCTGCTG	8120 a.u.
CTAACGAAGGTTTGGGAAGTGGGTGACAAGCCAAGTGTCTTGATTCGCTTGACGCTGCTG	3670 a.u.
GATGGGTAACCTGTTTCCGTGACGGAAACATTAGAAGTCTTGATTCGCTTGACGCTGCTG	3190 a.u.
AAAGCGGTAATTTGGACAGTGGGTGCAGATATCTATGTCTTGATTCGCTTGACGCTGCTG	4030 a.u.
AAAGCGGTAATTTGTAAAGTGGGTGCAGATATCTATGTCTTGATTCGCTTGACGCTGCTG	3640 a.u.

Further values, each from its own experiment
Molecule	target	test	test system	conditions	scale	endpoint	result
PhoQ, residues 284 288 289 292 302 303 TNSAEL	PhoP, residues 12 14 15 18 19 VHSCL (Escherichia coli, UniProt P23836)	Sort-seq, item: YFP reporter	E. coli	PhoQ-PhoP variant library, with: 10 µM Mg2+	reference: high Mg2+ state, higher = stronger signaling	fold induction	0.951

For quick reference, copied from above (block 2):
Strand	E-score
ATCCCCTA	0.0358
AATGAATT	0.333
